# Measurements collected from several papers.
# A part holds a random share of what one study measured. Several values in a cell are separate wells, animals, samples, runs or records.
# Chain of UniProt P45985 (whole entry, looked up): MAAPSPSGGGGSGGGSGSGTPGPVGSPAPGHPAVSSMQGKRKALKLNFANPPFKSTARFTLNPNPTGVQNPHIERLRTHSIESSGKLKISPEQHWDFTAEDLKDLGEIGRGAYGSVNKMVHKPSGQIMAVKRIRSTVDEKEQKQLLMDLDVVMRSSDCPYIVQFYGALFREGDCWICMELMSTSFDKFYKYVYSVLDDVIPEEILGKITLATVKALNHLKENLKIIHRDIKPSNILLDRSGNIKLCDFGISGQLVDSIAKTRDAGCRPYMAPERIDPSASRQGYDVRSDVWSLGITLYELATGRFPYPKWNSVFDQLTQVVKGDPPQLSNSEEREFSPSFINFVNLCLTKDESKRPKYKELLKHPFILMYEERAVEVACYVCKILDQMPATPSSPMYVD
# Chain of UniProt Q56UN5 (whole entry, looked up): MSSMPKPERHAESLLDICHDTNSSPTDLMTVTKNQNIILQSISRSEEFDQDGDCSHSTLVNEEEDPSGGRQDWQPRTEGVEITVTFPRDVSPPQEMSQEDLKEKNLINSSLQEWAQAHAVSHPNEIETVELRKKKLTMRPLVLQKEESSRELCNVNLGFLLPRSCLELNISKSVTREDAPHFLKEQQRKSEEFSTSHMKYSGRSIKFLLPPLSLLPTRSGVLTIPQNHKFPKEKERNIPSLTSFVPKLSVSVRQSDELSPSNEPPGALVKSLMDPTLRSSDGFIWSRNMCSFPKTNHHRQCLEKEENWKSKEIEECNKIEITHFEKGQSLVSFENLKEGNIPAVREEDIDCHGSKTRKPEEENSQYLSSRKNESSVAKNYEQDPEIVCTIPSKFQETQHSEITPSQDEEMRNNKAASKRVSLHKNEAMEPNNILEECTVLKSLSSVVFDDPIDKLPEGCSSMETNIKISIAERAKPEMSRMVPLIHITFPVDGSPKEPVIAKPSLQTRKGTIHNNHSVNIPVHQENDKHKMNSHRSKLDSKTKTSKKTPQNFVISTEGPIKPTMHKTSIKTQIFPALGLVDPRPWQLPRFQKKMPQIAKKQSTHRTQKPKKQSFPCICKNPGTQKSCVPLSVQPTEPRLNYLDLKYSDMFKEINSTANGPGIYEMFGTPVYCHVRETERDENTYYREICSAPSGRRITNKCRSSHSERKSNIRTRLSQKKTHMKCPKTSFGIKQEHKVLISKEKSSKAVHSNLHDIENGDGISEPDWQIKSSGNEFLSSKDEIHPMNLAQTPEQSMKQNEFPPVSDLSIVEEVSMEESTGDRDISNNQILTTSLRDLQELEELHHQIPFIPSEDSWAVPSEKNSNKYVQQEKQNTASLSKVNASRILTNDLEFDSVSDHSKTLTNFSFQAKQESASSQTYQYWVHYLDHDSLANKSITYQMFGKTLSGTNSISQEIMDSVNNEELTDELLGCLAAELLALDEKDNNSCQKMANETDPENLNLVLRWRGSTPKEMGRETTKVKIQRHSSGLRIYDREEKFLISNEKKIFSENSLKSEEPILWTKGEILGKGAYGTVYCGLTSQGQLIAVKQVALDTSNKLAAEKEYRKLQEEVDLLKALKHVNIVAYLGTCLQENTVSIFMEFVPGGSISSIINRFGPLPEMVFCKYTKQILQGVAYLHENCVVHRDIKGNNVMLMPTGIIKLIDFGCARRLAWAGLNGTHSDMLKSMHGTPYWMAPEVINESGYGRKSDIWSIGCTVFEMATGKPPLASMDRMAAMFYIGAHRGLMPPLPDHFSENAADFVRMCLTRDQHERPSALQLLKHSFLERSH

# Set 1
# Target: Homeodomain-interacting protein kinase 3 (HIPK3, Homo sapiens, UniProt Q9H422)
# Chain of UniProt Q9H422 (whole entry, looked up): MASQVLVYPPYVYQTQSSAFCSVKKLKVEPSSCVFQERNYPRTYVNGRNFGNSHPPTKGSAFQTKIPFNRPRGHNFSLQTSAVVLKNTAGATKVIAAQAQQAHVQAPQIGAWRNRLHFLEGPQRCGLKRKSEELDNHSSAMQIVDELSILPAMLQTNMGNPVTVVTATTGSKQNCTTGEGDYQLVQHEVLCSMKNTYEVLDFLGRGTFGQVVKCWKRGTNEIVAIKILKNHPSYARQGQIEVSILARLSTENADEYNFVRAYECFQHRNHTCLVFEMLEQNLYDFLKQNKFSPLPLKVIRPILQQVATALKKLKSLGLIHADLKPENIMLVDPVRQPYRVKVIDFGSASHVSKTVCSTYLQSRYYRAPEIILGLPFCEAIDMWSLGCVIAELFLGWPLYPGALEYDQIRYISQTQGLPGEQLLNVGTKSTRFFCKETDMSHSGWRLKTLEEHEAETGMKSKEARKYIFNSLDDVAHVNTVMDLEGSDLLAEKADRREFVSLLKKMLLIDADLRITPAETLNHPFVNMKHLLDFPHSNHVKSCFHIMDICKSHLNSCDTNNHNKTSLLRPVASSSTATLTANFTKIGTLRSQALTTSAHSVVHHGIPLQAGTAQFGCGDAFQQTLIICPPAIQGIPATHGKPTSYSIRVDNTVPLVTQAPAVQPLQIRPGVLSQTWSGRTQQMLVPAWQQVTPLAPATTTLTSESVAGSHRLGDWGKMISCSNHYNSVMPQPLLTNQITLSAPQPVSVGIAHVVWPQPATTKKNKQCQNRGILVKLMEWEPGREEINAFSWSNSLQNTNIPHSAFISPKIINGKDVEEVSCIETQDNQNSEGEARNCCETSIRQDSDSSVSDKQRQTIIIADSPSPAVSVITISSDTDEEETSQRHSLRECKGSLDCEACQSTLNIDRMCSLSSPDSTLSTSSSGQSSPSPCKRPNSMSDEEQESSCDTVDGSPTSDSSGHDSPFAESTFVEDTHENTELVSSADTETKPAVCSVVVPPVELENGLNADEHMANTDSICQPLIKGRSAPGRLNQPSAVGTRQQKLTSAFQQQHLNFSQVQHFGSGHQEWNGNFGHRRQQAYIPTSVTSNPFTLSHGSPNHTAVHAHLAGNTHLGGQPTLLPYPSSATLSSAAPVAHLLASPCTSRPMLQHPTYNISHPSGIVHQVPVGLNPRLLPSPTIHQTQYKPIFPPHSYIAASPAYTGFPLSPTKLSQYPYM
# Read-out: enzyme activity
# Mode: inhibitor
# Tested at: 0.5 µM
# Reference: control
Compound,remaining activity [%]
Cc1ccc(S(=O)(=O)/C=C/C#N)cc1,100
CN(C)S(=O)(=O)c1ccc2c(c1)/C(=C/c1cc3c([nH]1)CCCC3)C(=O)N2,107
C[C@@H](N)[C@H]1CC[C@H](C(=O)Nc2ccncc2)CC1,79.1
O=Nc1c(-c2c(O)[nH]c3ccccc23)[nH]c2ccccc12,89.2
c1ccc2c(-c3ccncc3)c[nH]c2c1,107
COc1ccc(COc2ccc(Cc3cnc(N)nc3N)cc2OC)cc1,102
NC(=O)c1cccc(-c2cc(Nc3ccc(OC(F)(F)F)cc3)ncn2)c1,104
O=C1c2ccccc2-c2nc3nnnn3nc21,101
CC(C)N(CCC(=O)c1ccc2ccccc2c1)Cc1ccccc1,115
COc1cc2c(N3CCN(C(=O)Nc4ccc(OC(C)C)cc4)CC3)ncnc2cc1OCCCN1CCCCC1,101
O=Nc1c(-c2c(O)[nH]c3cc(Br)ccc23)[nH]c2ccccc12,64.8
Nc1nc(Nc2ccc(S(N)(=O)=O)cc2)nn1C(=S)Nc1c(F)cccc1F,78.2
Oc1cccc(-c2nc(N3CCOCC3)c3oc4ncccc4c3n2)c1,93.8
O=C1NC(=O)/C(=C/c2ccc3c(c2)OC(F)(F)O3)S1,90.1
CC(C)(C)c1nc2c3cc[nH]c(=O)c3c3cc(F)ccc3c2[nH]1,78.6
O=C(O)/C=C/c1cc(Br)c(Br)c(Br)c1Br,96.7
CCCNC(=O)Nc1ccc(Oc2ncnc3cc(OC)c(OC)cc23)cc1Cl,96.2
CC(C)n1cnc2c(Nc3cccc(Cl)c3)nc(NCCO)nc21,99.9
c1ccc(-c2n[nH]c3c2oc2ccccc23)cc1,80.7

# Set 2
# Cell line: mouse MPNST tumor cells
# Technique: high-content nuclear imaging
# Measured: cell number
# Tested at: 10 µM
# Time: 12 h
# Setting: mean of 2 replicates
# Reference: plate mean
# Reading: higher = more cells
SMILES,nuclei count
CC(C)Oc1ccc2c(=O)c(-c3ccccc3)coc2c1,1.14 z-score
CCn1c2ccccc2c2cc(Nc3ccnc(NCCCN4CCOCC4)n3)ccc21,-5.36 z-score
C[N+](C)(C)CCOC(N)=O,1.31 z-score and 2.82 z-score
O=C(O)c1ccc(S(=O)(=O)N(Cc2ccc(OC(F)(F)F)cc2)c2ncc(C(F)(F)F)cc2Cl)cc1,2.36 z-score

# Set 3
# Host: human
# Matrix: microsomes or S9
# Tested at: 2 µM
# Time: 0.5 h
Structure (SMILES),remaining compound
COc1ccc(-c2nc(-c3ccc(C)cc3)no2)c(OC)c1,> 100%
CCn1cc(S(=O)(=O)N2CCN(S(=O)(=O)c3cnn(C)c3)CC2)cn1,79.6%
c1ccc(-n2ccc3cnc(N4CCCCC4)nc32)nc1,0.922%
COCCN1C(=O)c2ccccc2C(C(=O)N(C)c2ccccc2Cl)C1c1cccs1 (stereo not shown),3.5%

# Set 4
# Compound: CC(C)n1cnc(-c2ccc(F)cc2)c1-c1ncc(C(=O)Nc2ccc(N3CCN(C)CC3)cc2)[nH]1
technique,measured,host,route,dose,setting,patients with adverse event [%]
,"prostatic calcification, maximum grade 5",idiopathic pulmonary fibrosis patients,oral,60 mg once daily,,0
Phase 2a trial,hyperuricaemia,"human, idiopathic pulmonary fibrosis",,60 mg once daily,grade 4,0
Phase 2a trial,hepatic steatosis,"human, idiopathic pulmonary fibrosis",,60 mg once daily,grade 1,0
Phase 2a trial,hypocalcaemia,"human, idiopathic pulmonary fibrosis",,30 mg once daily,grade 2,0

# Set 5
# Cell line: A-375
# Tested at: 100 µM
# Time: 36 h
SMILES,viability [%]
CC(C)C[C@H](NC(=O)CNC(=O)c1cc(Cl)ccc1Cl)B1OC(=O)C(CC(=O)O)(CC(=O)O)O1,5.12
Cc1cn(-c2cc(NC(=O)c3ccc(C)c(Nc4nccc(-c5cnccn5)n4)c3)cc(C(F)(F)F)c2)cn1,3.24
COc1cc2nc(N(C)CCCNC(=O)C3CCCO3)nc(N)c2cc1OC (stereo not shown),88.4
Cc1cc(C#N)cc(C)c1Oc1nc(Nc2ccc(C#N)cc2)nc(N)c1Br,15.9

# Set 6
# SMILES: Cc1c(NC(=O)c2cc(C(N)=O)nc3cc(F)ccc23)c(C(F)(F)F)nn1Cc1ccc(C(C)(C)C)cc1
# Read-out: cell-free assay
# Technique: competition with immobilised ligand
# Tested at: 1 µM
target,remaining binding [%]
"MAP3K19 (Homo sapiens, UniProt Q56UN5)",85
"MAP2K4 (Homo sapiens, UniProt P45985)",100
"EGFR (Homo sapiens, UniProt P00533, del746-750)",100
"FLT3 (Homo sapiens, UniProt P36888, D835V/ITD)",95

# Single results of other studies
Structure (SMILES),cell line,technique,tested at,time,reference,measurement,value
O=C1Nc2cc(Br)ccc2/C1=C1/Nc2ccccc2/C1=N\O,HuT78,CCK-8,2 µM,48 h,untreated,viability,64.4%

# Excerpt of the above (set 1):
Compound,remaining activity [%]
Cc1ccc(S(=O)(=O)/C=C/C#N)cc1,100
CC(C)N(CCC(=O)c1ccc2ccccc2c1)Cc1ccccc1,115
O=Nc1c(-c2c(O)[nH]c3ccccc23)[nH]c2ccccc12,89.2
CC(C)(C)c1nc2c3cc[nH]c(=O)c3c3cc(F)ccc3c2[nH]1,78.6
Nc1nc(Nc2ccc(S(N)(=O)=O)cc2)nn1C(=S)Nc1c(F)cccc1F,78.2
O=Nc1c(-c2c(O)[nH]c3cc(Br)ccc23)[nH]c2ccccc12,64.8
c1ccc2c(-c3ccncc3)c[nH]c2c1,107
